Results from different studies.
± marks the error that the study gave. In brackets after ≈: the same amount, converted by molar mass.
Organism: Pseudomonas aeruginosa

CNC1=C([N+](=O)[O-])C2(C(=O)Nc3ccc([N+](=O)[O-])cc32)C2=C(CCCC2=O)O1 (stereo not shown) gave an inhibition of 59% (growth; MTCC 2453; 250 µg/mL, 24 h).
For CC(C)C[C@@H]1NC(=O)[C@H](CC(C)C)NC(=O)[C@H](CC(C)C)NC(=O)[C@@H]2CSCC(=O)N[C@@H](CCCCN)C(=O)N[C@@H](CCCCN)C(=O)N[C@@H](CCCCN)C(=O)NCCCC[C@H](NC(=O)[C@H](CCCCN)NC(=O)[C@H](CCCCN)NC(=O)[C@H](CCCCN)NC(=O)CSC[C@@H](C(=O)N[C@@H](CCCCN)C(N)=O)NC1=O)C(=O)N[C@@H](CCCCN)C(=O)N[C@@H](CC(C)C)C(=O)N[C@@H](CC(C)C)C(=O)N2, the biofilm dispersal was 0% (WST-8; PAO1; 32 µg/mL, 24 h, 37 °C, preformed biofilm).
Under “inhibition zone diameter”, O=[N+]([O-])c1ccc(CSc2nnc(C34CC5CC(CC(C5)C3)C4)n2-c2ccccc2)cc1 is recorded as < 10 mm (IFO 3448; 200 µg/disc, 24 h, 37 °C).
CCc1ccc(NC(=O)CSc2nc3ccccc3c(=O)n2-c2ccc(S(N)(=O)=O)cc2)cc1 has an inhibition zone of 16 mm (microbial growth, well diffusion; ATCC27853; 500 µg/mL, 24 h).
The biofilm inhibition of CC(=NNC(=N)N)c1nnn(-c2ccc(C#CC3(O)CCCCC3)cc2)c1C is reported as 47 ± 0.66% (crystal violet; ATCC 10145; MIC).
With COc1ccc(-c2ccn(CC[C@](C)(C(=O)NO)S(C)(=O)=O)c(=O)c2)c(F)c1 the ED50 was 16.8 mg/kg (PA-1950, neutropenic mouse thigh infection model).
CC[C@H](C)[C@H](NC(=O)[C@H](Cc1c[nH]cn1)NC(=O)[C@H](CCCCNC(=O)[C@@H](NC(=O)[C@H](CCCCN)NC(=O)[C@H](Cc1ccccc1)NC(=O)[C@H](CCCCNC(=O)[C@H](CC(C)C)NC(=O)[C@@H]1CCCN1C(=O)[C@H](CCCCN)NC(=O)C[C@@H]1O[C@@H](C)[C@@H](O)[C@@H](O)[C@@H]1O)NC(=O)[C@H](CC(C)C)NC(=O)[C@@H]1CCCN1C(=O)[C@H](CCCCN)NC(=O)C[C@@H]1O[C@@H](C)[C@@H](O)[C@@H](O)[C@@H]1O)[C@@H](C)CC)NC(=O)[C@@H](NC(=O)[C@H](CCCCN)NC(=O)[C@H](Cc1ccccc1)NC(=O)[C@H](CCCCNC(=O)[C@H](CC(C)C)NC(=O)[C@@H]1CCCN1C(=O)[C@H](CCCCN)NC(=O)C[C@@H]1O[C@@H](C)[C@@H](O)[C@@H](O)[C@@H]1O)NC(=O)[C@H](CC(C)C)NC(=O)[C@@H]1CCCN1C(=O)[C@H](CCCCN)NC(=O)C[C@@H]1O[C@@H](C)[C@@H](O)[C@@H](O)[C@@H]1O)[C@@H](C)CC)C(N)=O — result for “concentration for 100% biofilm dispersal”: 10 µM (PAO1; added: tobramycin 0.1 µM).
Under “inhibition zone diameter”, CC(=O)[O-].O.O.O.O.[Ni+2].[O-]c1ccc(Br)cc1C=NCCN1CCOCC1 is recorded as 19 mm (20 µL of 100 µM per disc).
O=c1cc(-c2ccccc2)oc2cc(O)cc([O][Ga+][O]c3cc(O)cc4oc(-c5ccccc5)cc(=O)c34)c12 gave an IC50 of 1.52 µg/mL (bacterial viability).
Under “MIC geometric mean”, CC[C@@H](C)[C@@H](NC(=O)[C@@H](C)NC(=O)[C@@H](CCCCN)NC(=O)[C@@H](CC(C)C)NC(=O)[C@@H](C)NC(=O)[C@H](NC(=O)[C@@H](Cc1c[nH]cn1)NC(=O)[C@@H](CC(C)C)NC(=O)[C@H](NC(=O)[C@H](NC(=O)[C@@H](CCCCN)NC(=O)[C@H](NC(=O)[C@@H](C)NC(=O)[C@@H](CO)NC(=O)[C@@H](CCCCN)NC(=O)[C@@H](Cc1ccccc1)NC(=O)[C@H](NC(=O)[C@@H](CCCCN)NC(=O)[C@@H](CC(C)C)NC(=O)[C@@H](Cc1ccccc1)NC(=O)[C@@H](CO)NC(=O)[C@@H](CCCCN)NC(=O)[C@@H](Cc1c[nH]c2ccccc12)NC(=O)[C@@H](CCCCN)NC(C)=O)[C@H](C)O)C(C)C)[C@H](C)O)C(C)C)[C@H](C)O)C(=O)N[C@H](CO)C(=O)N[C@H](CO)C(N)=O is recorded as 1.8 µM (≈ 5.33 µg/mL) (six isolates).
FC(F)(F)c1cc(CSc2nnc(C34CC5CC(CC(C5)C3)C4)n2-c2ccccc2)cc(C(F)(F)F)c1 — result for “inhibition zone diameter”: 19 mm (IFO 3448; 200 µg/disc, 24 h, 37 °C).
With CC[C@@H](C)[C@@H](NC(=O)[C@@H](C)NC(=O)[C@@H](CCCCN)NC(=O)[C@@H](CC(C)C)NC(=O)[C@@H](CC(C)C)NC(=O)[C@H](NC(=O)[C@@H](CCCCN)NC(=O)[C@@H](CC(C)C)NC(=O)[C@@H](C)NC(=O)[C@@H](CCCCN)NC(=O)[C@@H](CCCCN)NC(=O)[C@@H](CCCCN)NC(=O)[C@@H](C)NC(=O)[C@@H](CCCCN)NC(=O)[C@@H](CO)NC(=O)[C@@H](Cc1ccccc1)NC(=O)[C@H](NC(=O)[C@@H](CCCCN)NC(=O)[C@@H](CC(C)C)NC(=O)[C@@H](Cc1ccccc1)NC(=O)[C@@H](CO)NC(=O)[C@@H](CCCCN)NC(=O)[C@@H](Cc1c[nH]c2ccccc12)NC(=O)[C@@H](CCCCN)NC(C)=O)[C@H](C)O)[C@H](C)O)C(=O)N[C@H](CO)C(=O)N[C@H](CCCCN)C(N)=O the therapeutic index was 35.3 (six isolates; reference: HC50 over geometric mean MIC).
For CCCCCCCCCCCCCCCC(=O)N[C@@H](CCCCN)C(=O)N[C@@H](CCCCN)C(=O)N(CCCCN)CC(=O)N[C@@H](CCCCN)C(=O)N[C@@H](CCCCN)C(N)=O, the MBC was 128 µg/mL (≈ 143 µM) (ATCC 27853).
The MBIC of CC(C)C[C@@H](NC(=O)[C@@H](CC(C)C)NC(=O)[C@@H](CCCCN)NC(=O)[C@@H](CCCCNC(=O)[C@@H](CC(C)C)NC(=O)[C@@H](CC(C)C)NC(=O)[C@@H](CCCCNC(=O)[C@@H](CC(C)C)NC(=O)[C@@H](CCCCN)NC(=O)[C@@H](CCCCNC(=O)[C@@H](CC(C)C)NC(=O)[C@H](N)CCCCN)NC(=O)[C@@H](CC(C)C)NC(=O)[C@H](N)CCCCN)NC(=O)[C@@H](CC(C)C)NC(=O)[C@@H](CCCCN)NC(=O)[C@@H](CCCCNC(=O)[C@@H](CC(C)C)NC(=O)[C@H](N)CCCCN)NC(=O)[C@@H](CC(C)C)NC(=O)[C@H](N)CCCCN)NC(=O)[C@@H](CC(C)C)NC(=O)[C@@H](CC(C)C)NC(=O)[C@@H](CCCCNC(=O)[C@@H](CC(C)C)NC(=O)[C@@H](CCCCN)NC(=O)[C@@H](CCCCNC(=O)[C@@H](CC(C)C)NC(=O)[C@H](N)CCCCN)NC(=O)[C@@H](CC(C)C)NC(=O)[C@H](N)CCCCN)NC(=O)[C@@H](CC(C)C)NC(=O)[C@@H](CCCCN)NC(=O)[C@@H](CCCCNC(=O)[C@@H](CC(C)C)NC(=O)[C@H](N)CCCCN)NC(=O)[C@@H](CC(C)C)NC(=O)[C@H](N)CCCCN)C(N)=O is reported as 8 µg/mL (biofilm formation; PAO1; 24 h, 37 °C).
CC[C@@H](C)[C@@H](NC(=O)[C@@H](Cc1c[nH]c2ccccc12)NC(=O)[C@@H](CCCNC(=N)N)NC(=O)[C@H](N)CCCNC(=N)N)C(=O)N[C@H](CCCNC(=N)N)C(=O)N[C@@H](C(=O)N[C@H](C)C(=O)N[C@@H](C(=O)N[C@@H](C(=O)N[C@H](CC(C)C)C(=O)N[C@H](CCCNC(=N)N)C(=O)N[C@@H](C(N)=O)C(C)C)[C@H](C)CC)C(C)C)C(C)C has a survival of 18 ± 7% (PAO1, Galleria mellonella larvae; proleg injection, 20 µg per larva, 48 h post infection, 37 °C, dosed 1 h after infection).
The MBC of CCCCCCCCCCCCCCC(=O)N[C@@H](CCCCN)C(=O)N[C@@H](CCCCN)C(=O)N[C@@H](CCCCN)C(=O)N[C@@H](CCCCN)C(=O)N[C@@H](CCCCN)C(N)=O is reported as 128 µg/mL (≈ 145 µM) (ATCC 27853).
For Cc1cc(O)c2c(c1)C(=O)c1cc3oc(=O)cc(-c4ccc(Cl)cc4)c3c(O)c1C2=O, “zone of inhibition” read 8 mm (MTCC 2453; 100 µg/disc).
For CCCCCCCCCC1CC2CCCC3CC(CCCCCCCCC)NC(=N1)N23 (stereo not shown), the IC50 was 45 µM (bacterial growth; ATCC 27853).
For Oc1cc(C(F)(F)F)ccc1-c1nc2c(C(F)(F)F)cc(C(F)(F)F)cc2[nH]1, “MIC of colistin” read 0.25 µg/mL (colistin potentiator; TRPA 161, colistin-resistant; 5 µM).
CC[C@@H](C)[C@@H](NC(=O)[C@@H](C)NC(=O)[C@@H](CCCCN)NC(=O)[C@@H](CC(C)C)NC(=O)[C@@H](CC(C)C)NC(=O)[C@H](NC(=O)[C@@H](CCCCN)NC(=O)[C@@H](CC(C)C)NC(=O)[C@@H](CCCCN)NC(=O)[C@@H](CCCCN)NC(=O)[C@@H](CCCCN)NC(=O)[C@@H](CCCCN)NC(=O)[C@@H](C)NC(=O)[C@@H](CCCCN)NC(=O)[C@@H](CO)NC(=O)[C@@H](Cc1ccccc1)NC(=O)[C@H](NC(=O)[C@@H](CCCCN)NC(=O)[C@@H](CC(C)C)NC(=O)[C@@H](Cc1ccccc1)NC(=O)[C@@H](CO)NC(=O)[C@@H](CCCCN)NC(=O)[C@@H](Cc1c[nH]c2ccccc12)NC(=O)[C@@H](CCCCN)NC(C)=O)[C@H](C)O)[C@H](C)O)C(=O)N[C@H](CO)C(=O)N[C@H](CCCCN)C(N)=O: “MIC geometric mean” 2.5 µM (≈ 7.8 µg/mL) (six isolates).
The inhibition zone of C=C1CC(OC(=O)C(C)(O)CCl)C2C(=C)C(=O)OC2C2C1CC(O)C2(O)CCl (stereo not shown) is reported as 8 ± 1.2 mm (concentration not given).
For Fc1ccc(CSc2nnc(C34CC5CC(CC(C5)C3)C4)n2-c2ccccc2)cc1, “inhibition zone diameter” read < 10 mm (IFO 3448; 200 µg/disc, 24 h, 37 °C).
COc1c2c(cc3oc(=O)cc(C)c13)C(=O)c1cc(C)cc(O)c1C2=O — result for “zone of inhibition”: < 8 mm (MTCC 2453; 100 µg/disc).
The inhibition zone of CCOC(=O)c1cnc(N/N=C/c2c(-c3ccc(Br)cc3)nc3ncccn23)s1 is reported as 12 mm (microbial growth, well diffusion; ATCC27853; 100 µg/mL).
With O=c1cc(-c2ccc(O)cc2)oc2cc(O)cc([O][Ga+][O]c3cc(O)cc4oc(-c5ccc(O)cc5)cc(=O)c34)c12 the IC50 was 3.59 µg/mL (bacterial viability).

Excerpt of the above:
For Cc1cc(O)c2c(c1)C(=O)c1cc3oc(=O)cc(-c4ccc(Cl)cc4)c3c(O)c1C2=O, “zone of inhibition” read 8 mm (MTCC 2453; 100 µg/disc).
For CCCCCCCCCC1CC2CCCC3CC(CCCCCCCCC)NC(=N1)N23 (stereo not shown), the IC50 was 45 µM (bacterial growth; ATCC 27853).
